Experimental data gathered from unrelated publications.
Protocols differ between the studies behind these lines. Numbers after ± are the reported error. ≈ marks a conversion by molar mass, not a printed value.

| Compound | target | assay | test system | conditions | scale | endpoint | result |
| --- | --- | --- | --- | --- | --- | --- | --- |
| CCC1(CC)C(=O)N(Cc2cn(CCOCCOCCOCCNC(=O)CCCC[C@@H]3SC[C@@H]4NC(=O)N[C@@H]43)nn2)C1=O | serine hydrolases | competitive ABPP | U-937 cell lysate | 10 µM | relative to: compound over DMSO | SILAC ratio | > 3 |
| Cc1sc2ncn(CC(=O)N3CCCC3)c(=O)c2c1-c1cccc(Br)c1 | NMDA receptor, mouse | single-channel current, outside-out patch | cortical neurons | concentration not given, together with: Ca2+ 1.25 mM |  | amplitude 2 area | 23% |
| NC[C@@H]1O[C@H](O[C@H]2[C@@H](O)[C@H](O[C@@H]3[C@@H](O)[C@H](N)C[C@H](N)[C@H]3O[C@H]3O[C@H](CO)[C@@H](OCC(O)CO)[C@H](O)[C@H]3N)O[C@@H]2CO)[C@H](N)[C@@H](O)[C@@H]1O (stereo partly shown) | rabbit reticulocyte ribosome | luciferase translation, cell-free translation | rabbit reticulocyte lysate |  |  | IC50 | 8.81 ± 4.42 µg/mL (≈ 12.8 µM) |
| CC[C@H](C)[C@@H]1NC(=O)[C@H](CCCNC(=N)N)NC(=O)[C@H](C)NC(=O)CNC(=O)[C@H](CCCCN)NC(=O)[C@H](CCCNC(=N)N)NC(=O)[C@H](C(C)C)NC(=O)[C@H](C)NC(=O)[C@@H]2CSSC[C@@H]3NC(=O)[C@H](CO)NC(=O)[C@H]([C@@H](C)O)NC(=O)CNC(=O)[C@H](CCCNC(=N)N)NC(=O)[C@@H]4CCCN4C(=O)[C@H](CSSC[C@@H](C(=O)N[C@@H](CC(C)C)C(=O)O)NC(=O)[C@H](CCCCN)NC(=O)[C@H](CC(C)C)NC(=O)[C@H](CC(C)C)NC(=O)[C@H](Cc4ccccc4)NC(=O)[C@H](CO)NC(=O)[C@H](CC(N)=O)NC3=O)NC(=O)[C@H](CC(=O)O)NC(=O)[C@H](CSSC[C@H](NC(=O)[C@H](CCSC)NC(=O)[C@@H]3CCCN3C(=O)[C@@H](NC(=O)[C@H](CCC(N)=O)NC(=O)CNC(=O)[C@H](Cc3ccc(O)c(I)c3)NC(=O)[C@@H](N)CCCCN)C(C)C)C(=O)N[C@@H](CC(=O)O)C(=O)N[C@@H](C)C(=O)NCC(=O)N[C@@H](CCC(=O)O)C(=O)N[C@@H](CCC(N)=O)C(=O)N2)NC(=O)[C@H](CC(C)C)NC(=O)[C@H](CCCCN)NC(=O)CNC1=O [iodine-125 labelled] | CART binding site, rat | saturation binding | differentiated PC-12 membranes |  |  | Kd | 680 ± 60 pM |
| NC[C@@H]1O[C@H](O[C@H]2[C@@H](O)[C@H](O[C@@H]3[C@@H](O)[C@H](N)C[C@H](N)[C@H]3O[C@H]3O[C@H](CN)[C@@H](O)[C@H](O)[C@H]3N)O[C@@H]2CO)[C@H](N)[C@@H](O)[C@@H]1O | poly(dA)•2poly(dT) triplex | Tm shift |  | pH 5.5, 20 °C, KCl 140 mM |  | association constant | 240000 ± 10000 M⁻¹ |
| CC(C)C[C@H](NC(=O)[C@H](CO)NC(=O)[C@H](CCCNC(=N)N)NC(=O)[C@H](CC(=O)O)NC(=O)[C@H](CCC(=O)O)NC(=O)[C@H](C)NC(=O)[C@@H]1CCCN1C(=O)[C@H](C)NC(=O)[C@H](CCC(=O)O)NC(=O)[C@@H]1CCCN1C(=O)[C@@H]1CCCN1)C(N)=O | dopamine system |  | rhesus monkey, contralateral nucleus accumbens | intranasal, dose not given, repeated dose escalation | relative to: vehicle | DOPAC level reduction | 45% |
| CCCCCCCCCCCCCCC(Br)C(=O)O[C@@H](C(=O)O[C@H]1C[C@@]2(O)[C@@H](OC(=O)c3ccccc3)[C@@H]3[C@]4(OC(C)=O)CO[C@@H]4C[C@H](O)[C@@]3(C)C(=O)[C@H](OC(C)=O)C(=C1C)C2(C)C)[C@@H](NC(=O)c1ccccc1)c1ccccc1 (stereo partly shown) | tubulin | polymerization |  |  |  | time to Vmax | 8 to 9 min |
| CO[C@@H]1[C@H](O)[C@@H](COP(=O)(O)OP(=O)([S-])OP(=O)(S)OC[C@H]2O[C@@H](n3cnc4c(=O)[nH]c(N)nc43)[C@H](O)[C@@H]2O)O[C@H]1n1c[n+](C)c2c(O)nc(N)nc21 (stereo partly shown) | Schizosaccharomyces pombe Dcp1/Dcp2 complex | substrate | capped short RNA | 30 min, 30 °C |  | decapping | 59.8 ± 4.8% |
| NC(CSSCC(N)C(=O)N1CCn2cc(-c3ccccc3)nc2C1CC1CCCCC1)C(=O)N1CCn2cc(-c3ccccc3)nc2C1CC1CCCCC1 (stereo not shown) | Gαq/11 | measured: IP1 | CHO M1 receptor expressing | 10 µM |  | inhibition | 26.9 ± 3.3% |
| CC1OCC2OC(OC3C(N)CC(N)C(O)C3OC3OC(CO)C(OC4OC(CN)C(O)C(O)C4N)C3O)C(N)C(O)C2O1 (stereo not shown) | rabbit reticulocyte ribosome | luciferase translation, cell-free translation | rabbit reticulocyte lysate |  |  | IC50 | 37.4 ± 4.61 µg/mL (≈ 58.3 µM) |
| Cc1ccc(NC(=O)c2c(C)oc3ccc(O)c(CN4CCCCCC4)c23)cc1 | CAG repeat DNA | binding, small molecule microarray |  |  | direction not given | composite Z-score | 0.1 |
| CN1CCCNC(=O)CCC(=O)NCCCN(C)CCCNc2cccc3c2C(=O)c2cccc(c2C3=O)NCCC1 | duplex DNA | TRAP assay PCR |  |  | no inhibition up to value | PCR inhibition threshold | > 150 µM |
| COc1cc(C(=O)c2[nH]c(N)nc2-c2cccs2)cc(OC)c1OC | FtsZ (Streptococcus pneumoniae) |  |  |  |  | polymerization | no effect |
| CCC(=O)N(C)c1ccc(Cl)c(Cl)c1 | CAR3 constitutive androstane receptor, human | reporter gene, agonist |  | 3.2 µM | relative to: vehicle | fold activation | 0.66 fold |
| CC1=[N+]2N=C(c3ccccc3)[O][Pd-2]2([Cl])[O+]=C2Oc3ccccc3C=C21 (stereo not shown) | yeast tRNA | UV-visible absorption titration |  | concentration not given, pH 7.2 |  | hypochromism | 8.67% |
| Cc1ccc2ccc3ccc(C)nc3c2n1.Cc1ccc2ccc3ccc(C)nc3c2n1.O.[Cl-].[Cl-].[Cl-].[Yb+3] | salmon sperm DNA | gel electrophoresis |  | concentration not given, together with: H2O2 20 mM | relative to: without H2O2 | DNA cleavage | increased |
| Cc1c(-c2cccc(C3=NCCN3)c2)oc(-c2cccc(C3=NCCN3)c2)c1C | c-KIT2 G-quadruplex DNA | G-quadruplex stabilisation, FRET melting |  | 1 µM |  | ΔTm | 16.8 °C |
| C1=[N+]2CCC[N+]3=Cc4ccc5[n]4[Au-]23[n]2c1ccc2-c1nc2ccccc2nc1-5.F[P-](F)(F)(F)(F)F | human ACTN3 291-bp dsDNA | high resolution melt |  |  |  | maximal Tm increase | 5.1 °C |
| Cc1cccc(C)c1Nc1nn(C)c2nc(Nc3ccc4c(c3)CN(CC3CCN(c5ccc6c(c5)C(=O)N(C5CCC(=O)NC5=O)C6=O)CC3)CC4)ncc12 (stereo not shown) | IKZF1, IKZF3, Helios, GSPT1, CK1α | immunoblot | U2932 and WSU-WM | 100 nM, 24 or 72 h |  | neosubstrate protein level | no effect |

Some of these lines once more:
| Compound | target | assay | test system | conditions | scale | endpoint | result |
| --- | --- | --- | --- | --- | --- | --- | --- |
| Cc1c(-c2cccc(C3=NCCN3)c2)oc(-c2cccc(C3=NCCN3)c2)c1C | c-KIT2 G-quadruplex DNA | G-quadruplex stabilisation, FRET melting |  | 1 µM |  | ΔTm | 16.8 °C |
| C1=[N+]2CCC[N+]3=Cc4ccc5[n]4[Au-]23[n]2c1ccc2-c1nc2ccccc2nc1-5.F[P-](F)(F)(F)(F)F | human ACTN3 291-bp dsDNA | high resolution melt |  |  |  | maximal Tm increase | 5.1 °C |
| Cc1cccc(C)c1Nc1nn(C)c2nc(Nc3ccc4c(c3)CN(CC3CCN(c5ccc6c(c5)C(=O)N(C5CCC(=O)NC5=O)C6=O)CC3)CC4)ncc12 (stereo not shown) | IKZF1, IKZF3, Helios, GSPT1, CK1α | immunoblot | U2932 and WSU-WM | 100 nM, 24 or 72 h |  | neosubstrate protein level | no effect |
